Experimental data gathered from unrelated publications.
Several values in a cell are separate wells, animals, samples, runs or records. ± gives the spread as reported.

N=C(N)NCCNC(=O)C1(Nc2ccccc2)CCN(Cc2ccccc2)CC1
elimination rate constant (male Sprague-Dawley rats; intravenous, 2.5 mg/kg): 0.000222 ± 2.78e-05 s⁻¹

Cc1ccccc1C(=O)NN=Cc1ccc(O)c(Br)c1
plasma concentration (normal C3H/HeN mouse, plasma; intravenous, 1.6 mg/kg, 30 min): 106 ng/mL

CC(C)C[C@H](NC(=O)[C@H](C)NC(=O)[C@@H](NC(=O)[C@H](CCCNC(=N)N)NC(=O)[C@H](CC(C)C)NC(=O)[C@H](Cc1c[nH]c2ccccc12)NC(=O)[C@@H]1CCCN1C(=O)[C@@H](N)CCCCN)C(C)C)C(=O)N[C@@H](CS)C(=O)N1CCC[C@H]1C(=O)NCC(=O)O
hemolysis (sheep red blood cells; 512 µM, 1 h, 37 °C): 0.88% and 0.91% and 1.32%

O=C(Nc1ccc(Cl)cc1)Nc1ccc(Cl)c(Cl)c1
dose fraction in permeate (ultrafiltration; cow milk whey; 200 nM nominal in whole milk): 2.37%

CC[C@H](C)[C@H](NC(=O)[C@H](Cc1ccccc1)NC(=O)[C@H](CCC(=O)O)NC(=O)[C@H](CCCNC(=N)N)NC(=O)[C@H](C)NC(=O)[C@H](C)NC(=O)[C@H](CCC(N)=O)NC(=O)[C@H](CCC(=O)O)NC(=O)[C@H](CCC(=O)O)NC(=O)[C@H](CC(C)C)NC(=O)[C@H](Cc1ccc(O)cc1)NC(=O)[C@H](CO)NC(=O)[C@H](CO)NC(=O)[C@@H](NC(=O)[C@H](CC(=O)O)NC(=O)[C@H](CO)NC(=O)[C@@H](NC(=O)[C@H](Cc1ccccc1)NC(=O)[C@@H](NC(=O)CNC(=O)[C@H](CCC(=O)O)NC(=O)[C@H](C)NC(=O)CCc1cnc[nH]1)[C@@H](C)O)[C@@H](C)O)C(C)C)C(=O)N[C@@H](C)C(=O)N[C@@H](Cc1c[nH]c2ccccc12)C(=O)N[C@@H](CC(C)C)C(=O)N[C@H](C(=O)N[C@@H](CCCNC(=N)N)C(=O)NCC(=O)N[C@@H](CCCNC(=N)N)C(=O)N[C@@H](CCCCNC(=O)COCCOCCNC(=O)COCCOCCNC(=O)CC[C@H](NC(=O)CCCCCCCCCCCCCCCCC(=O)O)C(=O)O)C(=O)NCC(=O)NCC(=O)N[C@@H](CO)C(=O)N[C@@H](CCSC)C(=O)N[C@H](C(=O)N[C@@H](CCCCNc1c(NCCCCCN(O)C(=O)CCC(=O)NCCCCCN(O)C(=O)CCC(=O)NCCCCCN(O)C(C)=O)c(=O)c1=O)C(=O)O)C(C)C)C(C)C [zirconium-89 labelled]
tissue uptake (ex vivo gamma counting; male Sprague-Dawley rats, pancreas; intravenous, 1 nmol, 24 h, mean of 3 animals): 0.161 %ID/g

COc1cccc2c1C(=O)c1c(O)c3c(c(O)c1C2=O)C[C@@](O)(C(=O)CO)C[C@@H]3O[C@H]1C[C@H](N)[C@H](O)[C@H](C)O1
serum troponin I (healthy BALB/cJ mice; 3 mg/kg weekly, 3 weeks, blood 1 week after treatment): increased

C[C@@H]1OC(=O)NN=C1c1ccc(-c2ccc(F)cc2)c(C(F)(F)F)c1
patients with adverse event (phase I trial, item: Anaemia all grades; human patients; dose not given, all dose groups): 40%

CCc1ccc(CC/C=C/c2ccc3c(c2)C(=O)CC3)cc1
MCV (Sprague-Dawley rat, female, blood; oral, 30 mg/kg/day, 14 days): 58.8 fL

COc1cc2c(Oc3ccc4[nH]c(C)cc4c3F)ccnc2cc1OCC1(N)CC1
T-wave abnormality incidence (paediatric refractory sarcoma patients; 10 mg): 50%

O=C(O)CCCOc1ccc(F)cc1-c1cc(-c2ccccc2C(F)(F)F)n(-c2ccccc2)n1
APTT (female Crl:CD(SD) rats; intravenous, 25 µg/kg, 14 d): 18.7 s and 18.1 s and 16.7 s and 17.8 s and 16.8 s

COc1ncnn2ccc(-c3cnc4nc(C)n(Cc5nnc([C@@H](C)F)o5)c4c3)c12
patients with pyrexia (human; oral, dose not given, grade 2): 7.1%

O=C1Nc2cc3[nH]nc(-c4ccncc4)c3cc2CN1Cc1ccccc1
patients with acneiform dermatitis (CTCAE v4.03; advanced solid tumour patients; intravenous, 3.6 mg/kg): 0%

Cn1cncc1-c1c(F)cncc1NC(=O)c1c(N)nn2cc(F)cnc12
grade ≥3 hyponatraemia incidence (human patients; oral, 130 mg once daily): 11%

COc1ccc2nc3cc(Cl)ccc3c(Nc3cc(CN4CCCC4)c(O)c(CN4CCCC4)c3)c2n1
eosinophil count (mouse, blood; intraperitoneal, 57 mg/kg): 0.98 10⁹/L

CCOC(=O)C1=C(CN2CCOCC2)NC(c2nccs2)=NC1c1ccc(F)cc1Br (centres unmarked)
steady-state Cmin (healthy human, plasma; 340 mg three times daily, without ritonavir): 22.9 ng/mL

C[C@]1(CO)Cc2ncn(-c3ccc(C#N)c(Cl)c3)c2C(=O)O1
linearity index (human, plasma; 40 mg multiple doses; relative to: dose-proportional exposure): 100%

CC(C)c1nc(N(C)S(C)(=O)=O)nc(-c2ccc(F)cc2)c1/C=C/[C@@H](O)C[C@@H](O)CC(=O)O
incidence of gastrointestinal disorders (healthy human subjects; oral, dose not given, study CL-0537 safety set): 10.7%

CO[C@H]1C[C@@H]2CC[C@@H](C)[C@@](O)(O2)C(=O)C(=O)N2CCCC[C@H]2C(=O)O[C@H]([C@H](C)C[C@@H]2CC[C@@H](OC(=O)NCCOCCOCCOCCOCCOCCOCCOCCOCCC(=O)N3CCc4cc(Cn5nc(-c6ccc7oc(N)nc7c6)c6c(N)ncnc65)ccc4C3)[C@H](OC)C2)C[C@@H](O)[C@H](C)/C=C(\C)[C@@H](O)[C@@H](OC)C(=O)[C@H](C)C[C@H](C)/C=C/C=C/C=C/1C
AE leading to dose interruption (patients with advanced solid tumours; intravenous, 8 mg weekly, grade 3 or higher): 31.3%

CCCCCCCCCCC[C@H](OC1OC[C@H](O)[C@@H](O)[C@@H]1O)[C@H](O)[C@H](O)C[C@@H]1CC(=O)N[C@H](CO)C(=O)N[C@H]([C@H](O)c2ccc(O)cc2)C(=O)N[C@H](CCN)C(=O)NCC(=O)N[C@@H](CC(N)=O)C(=O)N[C@@H](CO)C(=O)N[C@@H]([C@H](O)C(N)=O)C(=O)N1 (some centres unmarked)
measured concentration (LC-MS/MS; rabbit plasma, sodium citrate; 800 ng/mL, 6 freeze-thaw cycles): 747 ng/mL

O=C(Nc1ccccc1)C1CCN(C(=O)Oc2cccnc2)CC1
subjects with Haematoma adverse event (adverse event reporting; healthy women; oral, 60 mg): 14.3%

c1ccc2cc3c(ccc4ccccc43)cc2c1
Vmax (metabolism; pooled human liver microsomes; pH 7.4): 22.4 pmol/min/mg

COc1cccc(Oc2ccccc2NC(=O)CNC(=O)c2cccc3ccccc23)c1
unconjugated bilirubin (esterase-deficient SCID mice, male; oral, 40 mg/kg/day, 14 days, toxicity study): 0.1 mg/dL

CC(C)C[C@H](NC(=O)[C@H](CCCCN)NC(=O)OCC1c2ccccc2-c2ccccc21)C(=O)N[C@H](C(=O)N[C@@H](Cc1ccccc1)C(=O)N[C@@H](Cc1ccccc1)C(=O)N[C@@H](CCCCN)C(=O)NCC(=O)N[C@@H](Cc1ccccc1)C(=O)N[C@@H](C)C(=O)N[C@@H](Cc1c[nH]c2ccccc12)C(=O)N[C@@H](CC(N)=O)C(=O)N[C@H](C(=O)N[C@H]1CSSC[C@@H](C(=O)N[C@@H](Cc2c[nH]cn2)C(=O)N[C@@H](CCCNC(=N)N)C(=O)N[C@@H](CCCNC(=N)N)C(=O)N[C@@H](C)C(=O)N[C@@H](CC(N)=O)C(N)=O)NC(=O)[C@H](C(C)C)NC(=O)[C@H](CCCNC(=N)N)NC(=O)[C@H](C(C)C)NC(=O)CNC(=O)[C@H](CC(N)=O)NC(=O)[C@H](CCCNC(=N)N)NC(=O)[C@H](Cc2ccc(O)cc2)NC(=O)[C@H](C(C)C)NC1=O)C(C)C)C(C)C
monocytes (ICR mice, blood; intraductal mammary, 5 mg/kg, day 5): 2.96 ± 0.38%

C=CC(=O)N1CC[C@H](n2nc(C#Cc3cc(OC)cc(OC)c3)c3c(N)ncnc32)C1
hyperphosphatemia incidence, grade ≥3 (human patients, all; oral, dose not given, QD regimen, adverse drug reaction): 4.7%

COc1c(OCCCN2CCOCC2)ccc2c1N=C(NC(=O)c1cnc(N)nc1)N1CCN=C21
systolic blood pressure (human, solid tumour expansion cohort; 0.8 mg/kg, day 8, pre-infusion): 119 ± 11.3 mmHg

O=S(=O)(Nc1ccccc1)c1ccc(NC(=S)Nc2ccccc2)cc1
mean corpuscular volume (mouse, female, blood; oral, 20 mg/kg daily, 14 days): 49 fL
